Published values collected from several papers.
Values joined by “and” are separate records of one study, mostly repeats; a detail may differ. ± gives the spread as reported.
EGLN1: Egl nine homolog 1 (EGLN1, Homo sapiens, UniProt Q9GZT9)
Sequence of UniProt Q9GZT9 (whole entry, looked up): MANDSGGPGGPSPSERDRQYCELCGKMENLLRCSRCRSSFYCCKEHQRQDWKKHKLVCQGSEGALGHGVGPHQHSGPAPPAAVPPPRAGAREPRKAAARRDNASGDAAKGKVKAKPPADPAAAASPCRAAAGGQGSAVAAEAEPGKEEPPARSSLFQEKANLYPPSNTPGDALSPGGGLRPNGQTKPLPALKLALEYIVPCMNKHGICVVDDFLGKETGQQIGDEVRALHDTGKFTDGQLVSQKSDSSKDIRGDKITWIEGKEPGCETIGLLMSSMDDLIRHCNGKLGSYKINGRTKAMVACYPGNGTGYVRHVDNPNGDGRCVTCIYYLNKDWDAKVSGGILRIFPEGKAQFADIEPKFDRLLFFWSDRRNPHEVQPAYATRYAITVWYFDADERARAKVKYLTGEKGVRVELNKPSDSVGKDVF
Kir3.1/Kir3.2: Kir3.1/Kir3.2 (Homo sapiens, UniProt P48051+P48549)
Sequence of UniProt P48051 (whole entry, looked up): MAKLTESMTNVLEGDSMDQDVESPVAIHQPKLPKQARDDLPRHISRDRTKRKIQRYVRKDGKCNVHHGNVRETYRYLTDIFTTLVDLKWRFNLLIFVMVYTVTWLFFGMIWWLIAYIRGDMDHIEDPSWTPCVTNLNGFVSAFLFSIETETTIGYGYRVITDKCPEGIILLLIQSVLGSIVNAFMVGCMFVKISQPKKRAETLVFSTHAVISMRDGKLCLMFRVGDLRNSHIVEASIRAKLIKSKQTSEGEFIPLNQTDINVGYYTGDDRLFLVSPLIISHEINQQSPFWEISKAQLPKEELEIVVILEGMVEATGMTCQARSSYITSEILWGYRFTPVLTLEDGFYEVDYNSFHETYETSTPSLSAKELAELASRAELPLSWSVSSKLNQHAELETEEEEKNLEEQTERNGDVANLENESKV
Sequence of UniProt P48549 (whole entry, looked up): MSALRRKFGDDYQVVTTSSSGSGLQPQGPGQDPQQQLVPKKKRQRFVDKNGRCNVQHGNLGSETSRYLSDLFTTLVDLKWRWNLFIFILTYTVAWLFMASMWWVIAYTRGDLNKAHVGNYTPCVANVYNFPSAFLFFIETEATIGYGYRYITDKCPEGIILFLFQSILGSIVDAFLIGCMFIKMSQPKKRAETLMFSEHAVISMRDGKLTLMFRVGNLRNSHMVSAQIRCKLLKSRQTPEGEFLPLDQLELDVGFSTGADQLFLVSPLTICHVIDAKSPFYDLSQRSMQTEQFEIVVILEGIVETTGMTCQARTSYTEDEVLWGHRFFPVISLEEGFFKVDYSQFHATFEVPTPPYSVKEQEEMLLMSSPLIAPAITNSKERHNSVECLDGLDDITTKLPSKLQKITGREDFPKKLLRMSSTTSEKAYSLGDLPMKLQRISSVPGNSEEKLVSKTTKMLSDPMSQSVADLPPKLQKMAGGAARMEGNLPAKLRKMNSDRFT
BACE1: Beta-secretase 1 (BACE1, Homo sapiens, UniProt P56817)
Sequence of UniProt P56817 (whole entry, looked up): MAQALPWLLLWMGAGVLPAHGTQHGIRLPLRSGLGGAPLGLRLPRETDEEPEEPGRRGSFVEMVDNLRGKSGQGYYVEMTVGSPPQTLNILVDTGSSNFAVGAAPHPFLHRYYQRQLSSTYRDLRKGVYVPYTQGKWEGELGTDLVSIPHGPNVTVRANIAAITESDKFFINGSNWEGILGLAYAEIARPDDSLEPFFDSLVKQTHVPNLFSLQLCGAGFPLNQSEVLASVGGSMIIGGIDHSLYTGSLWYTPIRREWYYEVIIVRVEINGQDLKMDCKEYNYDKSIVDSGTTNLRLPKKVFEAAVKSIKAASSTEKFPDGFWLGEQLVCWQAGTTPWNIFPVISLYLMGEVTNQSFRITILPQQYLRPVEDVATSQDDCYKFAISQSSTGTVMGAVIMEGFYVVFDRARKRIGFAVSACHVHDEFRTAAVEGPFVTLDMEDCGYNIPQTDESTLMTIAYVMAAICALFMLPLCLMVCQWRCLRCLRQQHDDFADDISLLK
Ephx2: Bifunctional epoxide hydrolase 2 (Ephx2, Mus musculus, UniProt P34914)
Sequence of UniProt P34914 (whole entry, looked up): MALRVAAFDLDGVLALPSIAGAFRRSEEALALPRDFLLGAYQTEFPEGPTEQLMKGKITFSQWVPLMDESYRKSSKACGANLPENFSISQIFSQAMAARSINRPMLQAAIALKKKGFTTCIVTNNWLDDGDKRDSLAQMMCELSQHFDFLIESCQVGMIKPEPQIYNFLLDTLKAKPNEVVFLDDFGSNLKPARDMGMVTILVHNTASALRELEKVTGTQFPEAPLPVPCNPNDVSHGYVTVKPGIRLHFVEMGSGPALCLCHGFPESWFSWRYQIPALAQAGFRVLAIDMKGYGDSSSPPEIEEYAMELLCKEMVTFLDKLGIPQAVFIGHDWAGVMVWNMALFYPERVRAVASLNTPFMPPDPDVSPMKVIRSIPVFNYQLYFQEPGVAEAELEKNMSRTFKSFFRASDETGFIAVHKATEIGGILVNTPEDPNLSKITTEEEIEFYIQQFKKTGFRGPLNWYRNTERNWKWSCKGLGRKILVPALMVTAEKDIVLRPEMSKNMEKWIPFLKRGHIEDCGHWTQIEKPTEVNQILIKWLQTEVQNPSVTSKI
HDAC1: Histone deacetylase 1 (HDAC1, Homo sapiens, UniProt Q13547)
Sequence of UniProt Q13547 (whole entry, looked up): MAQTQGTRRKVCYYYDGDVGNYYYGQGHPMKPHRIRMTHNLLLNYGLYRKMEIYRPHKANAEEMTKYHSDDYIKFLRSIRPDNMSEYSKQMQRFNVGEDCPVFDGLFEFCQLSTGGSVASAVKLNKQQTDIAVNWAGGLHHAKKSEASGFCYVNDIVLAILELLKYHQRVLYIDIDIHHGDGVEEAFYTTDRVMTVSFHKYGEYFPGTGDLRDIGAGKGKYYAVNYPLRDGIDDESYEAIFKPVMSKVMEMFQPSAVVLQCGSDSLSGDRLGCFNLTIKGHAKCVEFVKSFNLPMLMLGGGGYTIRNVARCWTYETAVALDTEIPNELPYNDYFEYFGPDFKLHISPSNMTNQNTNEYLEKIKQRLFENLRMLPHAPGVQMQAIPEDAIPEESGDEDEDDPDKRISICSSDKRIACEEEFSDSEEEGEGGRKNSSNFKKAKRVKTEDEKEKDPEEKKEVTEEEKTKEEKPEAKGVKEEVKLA
Grik2: Glutamate receptor ionotropic, kainate 2 (Grik2, Rattus norvegicus, UniProt P42260)
Sequence of UniProt P31391 (whole entry, looked up): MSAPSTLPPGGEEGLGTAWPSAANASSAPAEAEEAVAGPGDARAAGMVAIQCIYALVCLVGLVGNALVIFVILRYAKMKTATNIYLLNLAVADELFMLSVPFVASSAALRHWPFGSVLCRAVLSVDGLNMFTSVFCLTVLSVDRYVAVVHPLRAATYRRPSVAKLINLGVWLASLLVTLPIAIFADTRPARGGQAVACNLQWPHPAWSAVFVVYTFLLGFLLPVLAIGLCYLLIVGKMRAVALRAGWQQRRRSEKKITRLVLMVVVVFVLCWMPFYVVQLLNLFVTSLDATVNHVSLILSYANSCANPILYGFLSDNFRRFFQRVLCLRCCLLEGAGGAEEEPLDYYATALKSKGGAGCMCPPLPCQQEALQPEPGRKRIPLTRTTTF
Sequence of UniProt P42260 (whole entry, looked up): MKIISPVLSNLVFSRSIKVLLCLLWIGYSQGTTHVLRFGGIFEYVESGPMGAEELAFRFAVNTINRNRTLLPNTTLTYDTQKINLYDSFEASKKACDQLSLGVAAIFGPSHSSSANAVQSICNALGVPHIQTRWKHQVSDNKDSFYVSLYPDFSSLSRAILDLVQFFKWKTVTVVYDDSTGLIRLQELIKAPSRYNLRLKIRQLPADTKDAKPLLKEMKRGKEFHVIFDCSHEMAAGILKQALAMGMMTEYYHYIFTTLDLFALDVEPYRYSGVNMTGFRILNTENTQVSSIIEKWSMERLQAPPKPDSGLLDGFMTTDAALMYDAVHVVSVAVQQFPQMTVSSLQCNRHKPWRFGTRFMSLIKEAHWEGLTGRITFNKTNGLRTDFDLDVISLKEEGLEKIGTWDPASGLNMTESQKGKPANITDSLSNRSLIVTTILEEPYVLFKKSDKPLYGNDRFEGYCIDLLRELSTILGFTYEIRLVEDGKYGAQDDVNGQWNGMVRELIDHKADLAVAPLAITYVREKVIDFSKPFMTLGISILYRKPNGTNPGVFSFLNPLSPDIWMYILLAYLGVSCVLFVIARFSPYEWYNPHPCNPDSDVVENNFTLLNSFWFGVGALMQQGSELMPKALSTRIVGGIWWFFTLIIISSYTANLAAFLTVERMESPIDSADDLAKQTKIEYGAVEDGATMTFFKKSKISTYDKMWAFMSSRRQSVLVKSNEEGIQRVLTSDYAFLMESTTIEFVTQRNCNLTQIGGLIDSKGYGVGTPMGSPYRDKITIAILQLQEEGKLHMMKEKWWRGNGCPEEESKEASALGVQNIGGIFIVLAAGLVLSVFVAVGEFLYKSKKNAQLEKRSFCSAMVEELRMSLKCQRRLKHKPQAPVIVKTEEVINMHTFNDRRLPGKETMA
Sequence of UniProt Q8TDS5 (whole entry, looked up): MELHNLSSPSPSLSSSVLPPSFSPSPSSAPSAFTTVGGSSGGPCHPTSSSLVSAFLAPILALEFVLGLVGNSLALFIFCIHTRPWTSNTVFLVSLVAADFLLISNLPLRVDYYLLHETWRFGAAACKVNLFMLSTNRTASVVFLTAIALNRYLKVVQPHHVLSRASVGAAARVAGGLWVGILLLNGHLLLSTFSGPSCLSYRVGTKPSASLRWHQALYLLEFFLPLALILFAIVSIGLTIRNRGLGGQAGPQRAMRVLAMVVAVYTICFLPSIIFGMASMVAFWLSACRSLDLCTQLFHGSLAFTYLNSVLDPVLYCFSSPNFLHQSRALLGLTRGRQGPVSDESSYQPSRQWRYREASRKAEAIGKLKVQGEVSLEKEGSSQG
Sequence of UniProt Q9P289 (whole entry, looked up): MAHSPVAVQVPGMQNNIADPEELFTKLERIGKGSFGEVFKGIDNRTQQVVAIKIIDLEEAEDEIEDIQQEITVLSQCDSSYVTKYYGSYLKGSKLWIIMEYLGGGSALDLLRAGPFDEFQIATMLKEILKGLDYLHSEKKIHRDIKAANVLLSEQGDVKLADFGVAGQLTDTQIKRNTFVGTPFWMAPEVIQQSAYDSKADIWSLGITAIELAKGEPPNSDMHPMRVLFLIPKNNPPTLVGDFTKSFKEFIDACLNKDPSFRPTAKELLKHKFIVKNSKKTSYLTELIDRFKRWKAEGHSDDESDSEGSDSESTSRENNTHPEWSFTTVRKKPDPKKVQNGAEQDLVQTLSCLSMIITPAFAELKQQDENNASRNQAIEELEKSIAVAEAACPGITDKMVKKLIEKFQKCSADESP

CCCCCCCCCCCCCCCC(=O)OCc1cc(=O)c(OC(=O)CCCCCCCCCCCCCCC)co1  IC50 (mushroom tyrosinase; inhibitor; with: L-tyrosine): > 2000 µM
NS(=O)(=O)c1ccc(N2N=C(C(F)(F)F)C[C@@H]2c2ccc(F)cc2F)cc1  IC50 (Cyclooxygenase-2 (Canis lupus familiaris, UniProt Q8SPQ9); PGE2 formation, inhibitor; dog whole blood; 24 h, 37 °C, with: LPS): > 30 µM
N[C@H](C(=O)O)C(F)(F)F  IC50 (Cystathionine beta-synthase (CBS, Homo sapiens, UniProt P35520); inhibitor, methylene blue; 60 min, with: L-cysteine and homocysteine 1 mM): 66 ± 9 µM
C=C(C)CCOP(=O)(O)OP(=O)(O)OP(=O)(O)OC[C@H]1O[C@@H](n2cnc3c(N)ncnc32)[C@H](O)[C@@H]1O  IC50 (Serine/threonine-protein kinase 26 (STK26, Homo sapiens, UniProt Q9P289); enzyme activity, inhibitor, HotSpot kinase; with: ATP 1 µM): 1.5 µM
Cc1ccc(C#N)c(=O)[nH]1  IC50 (EGLN1; ODDD peptide hydroxylation, inhibitor, MALDI-TOF MS; pH 7.00, 37.0 °C, with: 2-oxoglutarate 10 µM): > 1000 µM
COc1ccc(C(Nc2ccccn2)c2oc(CO)cc(=O)c2O)cc1 (stereo not drawn)  IC50 (Signal transducer and activator of transcription 3, phosphorylated homodimer (STAT3, Homo sapiens, UniProt P40763); DNA binding, EMSA): 30 to 50 µM
CCOC(=O)C1=C(C)N=c2s/c(=C\c3ccc(-c4cccc(C(=O)O)c4)o3)c(=O)n2C1c1c(OC)ccc2ccccc12 (stereo not drawn)  IC50 (Serine/threonine-protein kinase pim-1 (PIM1, Homo sapiens, UniProt P11309); kinase activity, inhibitor, ADP-Glo): 0.87 ± 0.5 µM
COc1cc(/C=C/C(C)=N/O)ccc1OCC(=O)Nc1cccc(C)c1  IC50 (Peroxisome proliferator-activated receptor gamma (PPARG, Homo sapiens, UniProt P37231); ligand displacement, TR-FRET): 9.24 µM
N=c1n(Cc2ccccc2)c2ccccc2n1CC(O)COc1ccccc1Cl (stereo not drawn)  IC50 (Kir3.1/Kir3.2; ion flux): 2.77 µM
COC(=O)C(Cc1ccc(CCCC(=O)NCCC(=O)Nc2ccc3nc(C)sc3c2)cc1)C(=O)OC  IC50 (L-lactate dehydrogenase A chain (LDHA, Homo sapiens, UniProt P00338); enzyme activity, inhibitor, fluorescence): > 200 µM
Tannic acid  IC50 (Genome polyprotein, NS2B-NS3 protease (Dengue virus type 2, UniProt P14340); inhibitor, fluorogenic substrate Bz-Nle-Lys-Arg-Arg-AMC; DENV2): 0.56 ± 0.04 µM
COc1ccc(N2CC3=C(C2=O)C(c2ccc(O)cc2)NC(=O)N3)cc1 (stereo not drawn)  IC50 (Intestinal-type alkaline phosphatase (ALPI, Bos taurus, UniProt P19111); enzyme activity, inhibitor, absorbance; pH 9.5): 9.44 µM
Fc1ccc(F)c(F)c1  IC50 (Neuronal acetylcholine receptor; alpha4/beta2 (Homo sapiens, UniProt P17787+P43681); ion current, inhibitor, two-electrode voltage clamp; Xenopus oocytes; with: ACh 1 mM): 0.0022 atm
CN(Cc1cc(Br)cc(Br)c1O)Cc1c(O)ccc2ccccc12  IC50 (BACE1; inhibitor, FRET; pH 4.5): 147 ± 55 µM
[Cl][Eu]([Cl])[Cl]  IC50 (Collagenase 3 (MMP13, Homo sapiens, UniProt P45452); enzyme activity, inhibitor; pH 7.5, with preincubation): 7.88 µM
O=C(Oc1cc(O)cc2c1C[C@@H](OC(=O)c1cc(O)c(O)c(O)c1)[C@@H](c1cc(O)c(O)c(O)c1)O2)c1cc(O)c(O)c(O)c1  IC50 (mRNA triphosphatase Cet1 (Trypanosoma brucei brucei, UniProt Q582T2); enzyme activity, Transcreener ADP fluorescence polarization; 3 h, with: 50 µM ATP): 0.24 µM
NC1CCC(c2ccc(Cl)c(Cl)c2)c2ccccc21 (racemic)  IC50 (Sodium-dependent serotonin transporter (Slc6a4, Mus musculus, UniProt Q60857, I172M)): 1.6 µM
COC(=O)CC[C@@H](C)[C@H]1CC[C@H]2[C@@H]3CC[C@@H]4C[C@H](OC(=O)CCCCCC(=O)O)CC[C@]4(C)[C@H]3CC[C@]12C  IC50 (human 20S proteasome; chymotrypsin-like activity, inhibitor; with: PA28): > 10 µM
O=C1NC(=S)/C(=C/c2ccc3c(c2)OCO3)S1  IC50 (Phosphatidylinositol 4,5-bisphosphate 3-kinase catalytic subunit alpha isoform (PIK3CA, Homo sapiens, UniProt P42336); enzyme activity, inhibitor): 0.45 µM
COc1cc2c(cc1OC)-c1cc3ccc4c(c3c[n+]1CC2)OCO4  IC50 (Cytochrome P450 2E1 (Cyp2e1, Rattus norvegicus, UniProt P05182); inhibitor): > 100 µM
CC1CC(OC(=O)c2ccccc2O)CC(C)(C)C1 (stereo not drawn)  IC50 (Voltage-gated inwardly rectifying potassium channel KCNH2 (KCNH2, Homo sapiens, UniProt Q12809); inhibitor; 10 min): 23 ± 23 µM
O=C(CCCCCCNC(=O)[C@H]1CCCN(C(=O)c2ccc(NC(=O)Nc3ccc(OC(F)(F)F)cc3)c(F)c2)C1)NO  IC50 (Ephx2; enzyme activity, inhibitor, fluorescence): 0.006 µM
CCCCCCc1cc2cc(Cl)ccc2n1C(=O)CCCC(=O)O  IC50 (Oxoeicosanoid receptor 1 (OXER1, Homo sapiens, UniProt Q8TDS5); calcium signal, antagonist): 1.2 µM and 1.17 µM
Oc1cccn(Cc2ccccc2)c1=S  IC50 (HDAC1; enzyme activity, inhibitor, SAMDI mass spectrometry): > 10 µM
O=C(O)c1ccc(-n2c(/C=C/c3cccc([N+](=O)[O-])c3)nc3ccccc3c2=O)cc1  IC50 (Grik2; ion current, inhibitor, two-electrode voltage clamp; Xenopus oocytes; concanavalin A pretreatment, with: 100 µM glutamate): > 300 µM
Cc1cc(C(C)Nc2ccccc2)c2nc(N3CCOCC3)cc(=O)n2c1 (stereo not drawn)  IC50 (Phosphatidylinositol 4,5-bisphosphate 3-kinase catalytic subunit alpha isoform (PIK3CA, Homo sapiens, UniProt P42336, H855E); enzyme activity, inhibitor): 1.4 µM
FC(F)(F)Oc1ccc(Oc2ccnc(N3CCC(NC(=S)Nc4cccnc4)CC3)c2Cl)c(Cl)c1  IC50 (Lysophosphatidylserine lipase ABHD12 (Abhd12, Mus musculus, UniProt Q99LR1); lyso-PS hydrolysis, inhibitor; HEK293T cell lysate; with: lyso-PS 12.5 to 200 µM): 0.005 to 0.07 µM
C[C@@H](CC(=O)NCc1cccc2ccccc12)NC(=O)[C@H](CC(=O)NC(C)(C)C)NC(=O)CCc1ccccc1  IC50 (Proteasome component C5/PSMB8 (Homo sapiens, UniProt P20618+P28062); chymotrypsin-like activity, inhibitor; with: ac-ANW-AMC): 0.057 ± 0.012 µM
CCN(c1ccc(Cl)cc1)S(=O)(=O)C1CC2OC1C(c1ccc(O)cc1)=C2c1ccc(O)cc1 (stereo not drawn)  IC50 (Estrogen receptor beta (ESR2, Homo sapiens, UniProt Q92731); reporter gene, antagonist, luciferase): 0.16 µM
COc1ccccc1-n1c(/C=C/c2ccc([N+](=O)[O-])cc2)nc2ccccc2c1=O  IC50 (Grik2; ion current, inhibitor, two-electrode voltage clamp; Xenopus oocytes; concanavalin A pretreatment, with: 100 µM glutamate): > 300 µM
Cc1cc(O)cc2c1OC(C)(CCCC(C)CCCC(C)CCCC(C)C(=O)O)CC2 (stereo not drawn)  IC50 (Prostaglandin G/H synthase 1 (PTGS1, Homo sapiens, UniProt P23219); enzyme activity, inhibitor, ELISA; with preincubation): 2.5 µM
CN1CCN(Cc2ccc(NC(=O)c3cncc(C#Cc4c(N)ncc5ccc(F)cc45)c3)cc2C(F)(F)F)CC1  IC50 (Breakpoint cluster region protein/Tyrosine-protein kinase ABL1 (Homo sapiens, UniProt P00519+P11274)): 0.0111 ± 0.0011 µM
OCCN(CCO)c1nc(N2CCCCCCC2)c2nc(N(CCO)CCO)nc(N3CCCCCCC3)c2n1  IC50 (Equilibrative nucleoside transporter 4 (SLC29A4, Homo sapiens, UniProt Q7RTT9); adenosine uptake; PK-15 expressing ENT4; 2 min, pH 6.0, with: [3H]adenosine 0.2 µM): 0.404 µM
CC(C)NCc1ccc(C[C@@H]2NC(=O)[C@H](N(C)C(=O)c3ccc4ccccc4c3)NC(=O)[C@H](Cc3ccccc3)NC(=O)[C@H](N)CSSC[C@@H](C(=O)N[C@@H](Cc3ccc4ccccc4c3)C(N)=O)NC(=O)[C@H](Cc3ccccc3)NC2=O)cc1  IC50 (Somatostatin receptor type 4 (SSTR4, Homo sapiens, UniProt P31391); ligand displacement, radioligand; cell membranes): 0.214 µM and 0.535 µM
Nc1ccc(C(=O)O)cc1  IC50 (mushroom tyrosinase; diphenolase activity, inhibitor; pH 6.8, 20 °C, with: caffeic acid substrate): 20 µM and ~20 µM
Nc1nc2c(ncn2[C@@H]2O[C@@H]3COP(=O)(O)O[C@H]3[C@H]2O)c(=O)[nH]1  IC50 (Cyclic nucleotide-gated potassium channel (Spirochaeta thermophila, UniProt G0GA88); channel activity, inhibitor, single-channel bilayer recording; 100 mV, with: cAMP 100 µM): 16 µM and 15 µM
N#Cc1ccc(F)c(OCC(O)Cn2c(=N)n(Cc3ccccc3)c3ccccc32)c1 (stereo not drawn)  IC50 (Kir3.1/Kir3.2; ion flux): 1.4 µM
C[C@]12C[C@@H]3C[C@](C)(C1)C[C@@](NC(=O)Nc1ccc(CN4CCC[C@H](C(=O)NCCCCCC(=O)NO)C4)cc1F)(C3)C2  IC50 (Ephx2; enzyme activity, inhibitor, fluorescence): 0.0025 µM
N#Cc1ccc(-c2ccc(Cn3cccc(O)c3=S)cc2)cc1  IC50 (HDAC1; enzyme activity, inhibitor, SAMDI mass spectrometry): > 10 µM
C[C@H](CO)N1C[C@H](C)[C@H](CN(C)Cc2ccc(C(=O)Nc3ccccc3N)cc2)Oc2ccc(N(C)C)cc2CC1=O  IC50 (HDAC1; enzyme activity, inhibitor; with preincubation): 0.069 µM
Cc1cccc(OCC(O)Cn2c(=N)n(Cc3ccccc3)c3ccccc32)c1 (stereo not drawn)  IC50 (Kir3.1/Kir3.2; ion flux): 4.95 µM
O=C1CCCCCCCCCCCCCCO1  IC50 (Liver carboxylesterase (Sus scrofa, UniProt Q29550); enzyme activity, inhibitor; with preincubation): 364 µM
C[C@@H](CNCc1ccccc1)N1C[C@H](CCCNC(=N)N)N(CCc2cccc(F)c2)C1=S  IC50 (GABAA receptor central benzodiazepine site; binding, radioligand displacement; with: flunitrazepam radioligand): > 1 µM
O=C(NNC(=O)c1ccc(CNS(=O)(=O)c2ccc(F)c(Cl)c2)cc1)c1ccccc1  IC50 (Glutamate NMDA receptor; Grin1/Grin2a (Grin1/Grin2a, Rattus norvegicus, UniProt P35439+Q00959, L777A); ion current, two-electrode voltage clamp; oocytes): 0.072 µM
NCCCCCO[C@H]1O[C@H](COS(=O)(=O)O)[C@@H](O[C@@H]2O[C@H](C(=O)O)[C@@H](O[C@H]3O[C@H](COS(=O)(=O)O)[C@@H](O[C@@H]4O[C@H](C(=O)O)[C@@H](O)[C@H](O)[C@H]4O)[C@H](O)[C@H]3NS(=O)(=O)O)[C@H](O)[C@H]2O)[C@H](O)[C@H]1NS(=O)(=O)O  IC50 (BACE1; enzyme activity, inhibitor, FRET; pH 4.5): 78 µM
CC(=O)N[C@@H](CCCCNC(=O)CSCCNC(=O)CCNC(=O)[C@H](O)C(C)(C)COP(=O)(O)OP(=O)(O)OC[C@H]1O[C@@H](n2cnc3c(N)ncnc32)[C@H](O)[C@@H]1OP(=O)(O)O)C(N)=O  IC50 (Histone acetyltransferase p300 (EP300, Homo sapiens, UniProt Q09472); enzyme activity, inhibitor): 0.0345 µM
O=C(O)/C=C/C(=O)NNC(=O)c1ccccn1  IC50 (EGLN1; inhibitor, AlphaScreen; bimodal curve, rough estimate, with: 2 µM 2-oxoglutarate): 47 µM
Cc1ccc(Cl)c(Nc2ccccc2C(=O)O)c1Cl  IC50 (Alpha-ketoglutarate-dependent dioxygenase FTO (FTO, Homo sapiens, UniProt Q9C0B1); enzyme activity, inhibitor, fluorescence; pH 6): 12.5 µM
O=C(O)/C=C/C(=O)NNC(=O)c1cc2ccccc2cn1  IC50 (EGLN1; inhibitor, AlphaScreen; bimodal curve, rough estimate, with: 2 µM 2-oxoglutarate): 9.7 µM
O=C(N/N=C/c1ccccc1O)c1ccccc1O  IC50 (Steroid hormone receptor ERR1 (ESRRA, Homo sapiens, UniProt P11474); reporter gene, inverse agonist, ERRE luciferase; HEK293 co-transfected; basal activity): 8.12 µM
CC1CCN(CC(=O)N2c3ccccc3Sc3cc4ccccc4cc32)CC1  IC50 (BACE1; inhibitor, FRET; pH 4.5): 286 ± 35 µM

For quick reference, copied from above:
NC1CCC(c2ccc(Cl)c(Cl)c2)c2ccccc21 (racemic)  IC50 (Sodium-dependent serotonin transporter (Slc6a4, Mus musculus, UniProt Q60857, I172M)): 1.6 µM
COC(=O)CC[C@@H](C)[C@H]1CC[C@H]2[C@@H]3CC[C@@H]4C[C@H](OC(=O)CCCCCC(=O)O)CC[C@]4(C)[C@H]3CC[C@]12C  IC50 (human 20S proteasome; chymotrypsin-like activity, inhibitor; with: PA28): > 10 µM
O=C1NC(=S)/C(=C/c2ccc3c(c2)OCO3)S1  IC50 (Phosphatidylinositol 4,5-bisphosphate 3-kinase catalytic subunit alpha isoform (PIK3CA, Homo sapiens, UniProt P42336); enzyme activity, inhibitor): 0.45 µM
COc1cc2c(cc1OC)-c1cc3ccc4c(c3c[n+]1CC2)OCO4  IC50 (Cytochrome P450 2E1 (Cyp2e1, Rattus norvegicus, UniProt P05182); inhibitor): > 100 µM
CC1CC(OC(=O)c2ccccc2O)CC(C)(C)C1 (stereo not drawn)  IC50 (Voltage-gated inwardly rectifying potassium channel KCNH2 (KCNH2, Homo sapiens, UniProt Q12809); inhibitor; 10 min): 23 ± 23 µM
O=C(CCCCCCNC(=O)[C@H]1CCCN(C(=O)c2ccc(NC(=O)Nc3ccc(OC(F)(F)F)cc3)c(F)c2)C1)NO  IC50 (Ephx2; enzyme activity, inhibitor, fluorescence): 0.006 µM
